Results of several laboratories.
Each line is one published result; not all experiments were run side by side. Several values in a cell are separate wells, animals, samples, runs or records. ± marks the error that the study gave.
MAPK8: Mitogen-activated protein kinase 8 (MAPK8, Homo sapiens, UniProt P45983)
E3 ubiquitin-protein ligase NEDD4: E3 ubiquitin-protein ligase NEDD4 (Homo sapiens, UniProt P46934)
RPA1 N-terminal domain: Replication protein A 70 kDa DNA-binding subunit, N-terminal domain (RPA1, Homo sapiens, UniProt P27694)
GRM4: Metabotropic glutamate receptor 4 (GRM4, Homo sapiens, UniProt Q14833)
Grm2: Metabotropic glutamate receptor 2 (Grm2, Rattus norvegicus, UniProt P31421)
MIPEP: Mitochondrial intermediate peptidase (MIPEP, Homo sapiens, UniProt Q99797)
APP Aβ1-40: Amyloid-beta precursor protein, Aβ1-40 (APP, Homo sapiens, UniProt P05067)
Lysophospholipase-like protein 1: Lysophospholipase-like protein 1 (Mus musculus, UniProt Q3UFF7)

Protein sequences, listed by entry. Tags and fused reporters are not part of them. Lines headed by an entry give the natural chain unless they say otherwise; changes in a name come on top. Residues count along the entry.
UniProt P45983, 1-384 isoform 3: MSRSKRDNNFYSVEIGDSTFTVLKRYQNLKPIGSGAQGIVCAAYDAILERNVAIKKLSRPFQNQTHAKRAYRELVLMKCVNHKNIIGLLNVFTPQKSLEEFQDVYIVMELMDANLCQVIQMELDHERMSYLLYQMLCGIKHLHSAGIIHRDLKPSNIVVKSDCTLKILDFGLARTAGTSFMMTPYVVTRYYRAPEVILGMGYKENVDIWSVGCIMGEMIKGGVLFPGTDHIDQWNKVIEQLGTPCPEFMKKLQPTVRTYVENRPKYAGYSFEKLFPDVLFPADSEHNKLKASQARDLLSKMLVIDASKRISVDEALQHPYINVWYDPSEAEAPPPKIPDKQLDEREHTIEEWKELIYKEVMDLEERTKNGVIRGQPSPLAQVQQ
UniProt P45983, 1-384 isoform 3 C116S: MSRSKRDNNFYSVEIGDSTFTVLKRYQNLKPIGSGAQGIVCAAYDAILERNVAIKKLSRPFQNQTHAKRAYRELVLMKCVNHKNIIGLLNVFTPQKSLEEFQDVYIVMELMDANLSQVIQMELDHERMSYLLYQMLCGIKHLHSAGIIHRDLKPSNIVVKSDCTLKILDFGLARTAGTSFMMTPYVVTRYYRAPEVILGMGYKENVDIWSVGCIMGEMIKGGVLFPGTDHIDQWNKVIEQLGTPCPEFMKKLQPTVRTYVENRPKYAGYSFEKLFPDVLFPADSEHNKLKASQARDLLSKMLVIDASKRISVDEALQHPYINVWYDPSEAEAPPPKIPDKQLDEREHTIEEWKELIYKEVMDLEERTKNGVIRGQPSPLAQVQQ
UniProt P46934, whole entry, looked up: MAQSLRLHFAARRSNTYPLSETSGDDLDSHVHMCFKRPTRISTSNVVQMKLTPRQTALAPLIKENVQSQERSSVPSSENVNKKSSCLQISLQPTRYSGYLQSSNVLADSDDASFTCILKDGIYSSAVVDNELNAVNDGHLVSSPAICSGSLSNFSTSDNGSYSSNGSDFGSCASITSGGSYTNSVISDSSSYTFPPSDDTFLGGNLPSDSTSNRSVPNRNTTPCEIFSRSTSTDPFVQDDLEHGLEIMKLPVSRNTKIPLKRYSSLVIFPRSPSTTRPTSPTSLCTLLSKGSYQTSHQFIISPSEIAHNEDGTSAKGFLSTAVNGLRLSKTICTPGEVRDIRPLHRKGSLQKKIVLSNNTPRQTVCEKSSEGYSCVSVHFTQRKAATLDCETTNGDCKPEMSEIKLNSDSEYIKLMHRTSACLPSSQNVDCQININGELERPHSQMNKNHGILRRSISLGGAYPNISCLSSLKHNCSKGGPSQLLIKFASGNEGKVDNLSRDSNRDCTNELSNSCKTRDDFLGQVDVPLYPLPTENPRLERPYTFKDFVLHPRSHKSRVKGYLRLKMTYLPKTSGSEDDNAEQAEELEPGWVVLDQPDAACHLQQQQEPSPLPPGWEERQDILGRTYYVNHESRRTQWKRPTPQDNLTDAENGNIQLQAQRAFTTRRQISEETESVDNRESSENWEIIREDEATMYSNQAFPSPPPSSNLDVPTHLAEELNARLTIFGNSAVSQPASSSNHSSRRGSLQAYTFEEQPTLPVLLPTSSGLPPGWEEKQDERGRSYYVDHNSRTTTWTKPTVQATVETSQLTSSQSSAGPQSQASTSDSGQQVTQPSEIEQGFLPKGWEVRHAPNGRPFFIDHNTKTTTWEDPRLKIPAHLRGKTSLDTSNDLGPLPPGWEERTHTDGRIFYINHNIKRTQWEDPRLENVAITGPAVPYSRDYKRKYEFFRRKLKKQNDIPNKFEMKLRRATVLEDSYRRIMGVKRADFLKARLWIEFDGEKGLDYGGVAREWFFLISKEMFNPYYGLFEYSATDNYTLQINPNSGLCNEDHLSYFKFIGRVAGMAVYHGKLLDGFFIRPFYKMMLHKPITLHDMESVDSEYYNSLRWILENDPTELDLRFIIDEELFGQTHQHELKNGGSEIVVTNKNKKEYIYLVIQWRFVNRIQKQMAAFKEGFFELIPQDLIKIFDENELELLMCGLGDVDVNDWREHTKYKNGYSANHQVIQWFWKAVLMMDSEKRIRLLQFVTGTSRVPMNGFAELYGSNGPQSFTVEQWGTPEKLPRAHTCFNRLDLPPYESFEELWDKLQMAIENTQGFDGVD
UniProt Q14833, 33-912 limits assumed: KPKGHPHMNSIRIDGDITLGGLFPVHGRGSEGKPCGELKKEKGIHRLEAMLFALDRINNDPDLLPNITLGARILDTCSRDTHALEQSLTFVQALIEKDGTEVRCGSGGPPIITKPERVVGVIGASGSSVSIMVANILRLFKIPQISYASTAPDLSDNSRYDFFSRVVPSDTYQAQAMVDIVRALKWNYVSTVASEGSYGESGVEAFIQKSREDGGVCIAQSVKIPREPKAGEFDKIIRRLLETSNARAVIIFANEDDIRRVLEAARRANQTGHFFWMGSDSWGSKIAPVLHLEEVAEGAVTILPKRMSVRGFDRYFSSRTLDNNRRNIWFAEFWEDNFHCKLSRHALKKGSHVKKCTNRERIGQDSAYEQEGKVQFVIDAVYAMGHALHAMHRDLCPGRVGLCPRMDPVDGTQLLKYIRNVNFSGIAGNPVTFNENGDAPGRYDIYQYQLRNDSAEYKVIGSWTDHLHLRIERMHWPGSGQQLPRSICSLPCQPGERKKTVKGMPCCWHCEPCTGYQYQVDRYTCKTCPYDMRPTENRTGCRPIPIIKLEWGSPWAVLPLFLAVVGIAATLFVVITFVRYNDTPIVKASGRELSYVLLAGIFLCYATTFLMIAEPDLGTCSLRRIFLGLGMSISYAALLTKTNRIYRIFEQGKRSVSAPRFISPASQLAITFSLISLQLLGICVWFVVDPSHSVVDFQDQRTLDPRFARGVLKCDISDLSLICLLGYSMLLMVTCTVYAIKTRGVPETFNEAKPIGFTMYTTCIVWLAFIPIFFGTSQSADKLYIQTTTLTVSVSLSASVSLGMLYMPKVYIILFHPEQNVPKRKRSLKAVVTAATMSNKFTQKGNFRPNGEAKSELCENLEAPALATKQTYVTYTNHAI
UniProt P05067, whole entry, looked up: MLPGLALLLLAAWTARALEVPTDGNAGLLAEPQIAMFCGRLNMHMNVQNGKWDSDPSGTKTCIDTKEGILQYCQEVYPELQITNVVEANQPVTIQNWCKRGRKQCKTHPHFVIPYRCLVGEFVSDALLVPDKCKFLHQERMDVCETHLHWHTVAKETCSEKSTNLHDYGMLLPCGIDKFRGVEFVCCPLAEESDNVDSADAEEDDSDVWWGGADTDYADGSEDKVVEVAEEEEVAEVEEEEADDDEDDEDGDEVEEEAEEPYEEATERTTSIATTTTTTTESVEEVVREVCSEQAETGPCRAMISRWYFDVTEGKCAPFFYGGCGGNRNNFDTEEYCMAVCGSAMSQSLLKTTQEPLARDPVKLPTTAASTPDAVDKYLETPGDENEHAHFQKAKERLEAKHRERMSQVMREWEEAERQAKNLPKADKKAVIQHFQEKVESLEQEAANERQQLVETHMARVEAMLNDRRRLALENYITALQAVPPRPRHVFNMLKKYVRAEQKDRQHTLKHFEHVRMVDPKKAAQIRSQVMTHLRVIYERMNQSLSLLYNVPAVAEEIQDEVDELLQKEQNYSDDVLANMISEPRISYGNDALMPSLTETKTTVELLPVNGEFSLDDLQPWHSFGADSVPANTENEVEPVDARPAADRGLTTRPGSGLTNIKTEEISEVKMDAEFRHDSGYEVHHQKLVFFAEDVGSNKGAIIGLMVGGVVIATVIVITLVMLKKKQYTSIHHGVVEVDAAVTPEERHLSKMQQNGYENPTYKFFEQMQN
UniProt P05067, 672-713 limits assumed: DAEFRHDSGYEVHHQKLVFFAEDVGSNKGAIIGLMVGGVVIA
UniProt O00519, whole entry: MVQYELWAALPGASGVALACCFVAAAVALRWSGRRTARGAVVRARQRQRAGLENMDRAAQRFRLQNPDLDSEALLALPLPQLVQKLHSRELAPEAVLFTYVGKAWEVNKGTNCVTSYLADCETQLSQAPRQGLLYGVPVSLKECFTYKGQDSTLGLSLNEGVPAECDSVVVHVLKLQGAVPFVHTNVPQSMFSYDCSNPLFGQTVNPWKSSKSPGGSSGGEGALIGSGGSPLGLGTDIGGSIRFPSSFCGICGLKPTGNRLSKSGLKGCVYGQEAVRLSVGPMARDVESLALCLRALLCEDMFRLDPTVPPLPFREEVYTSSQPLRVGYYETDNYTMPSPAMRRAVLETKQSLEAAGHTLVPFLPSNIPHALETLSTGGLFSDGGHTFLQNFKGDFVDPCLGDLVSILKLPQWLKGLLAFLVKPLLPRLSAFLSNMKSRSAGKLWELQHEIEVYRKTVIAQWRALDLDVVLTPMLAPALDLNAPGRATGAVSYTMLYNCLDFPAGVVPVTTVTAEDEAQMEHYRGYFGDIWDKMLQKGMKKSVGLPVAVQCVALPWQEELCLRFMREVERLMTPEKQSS
UniProt P43220, whole entry, looked up: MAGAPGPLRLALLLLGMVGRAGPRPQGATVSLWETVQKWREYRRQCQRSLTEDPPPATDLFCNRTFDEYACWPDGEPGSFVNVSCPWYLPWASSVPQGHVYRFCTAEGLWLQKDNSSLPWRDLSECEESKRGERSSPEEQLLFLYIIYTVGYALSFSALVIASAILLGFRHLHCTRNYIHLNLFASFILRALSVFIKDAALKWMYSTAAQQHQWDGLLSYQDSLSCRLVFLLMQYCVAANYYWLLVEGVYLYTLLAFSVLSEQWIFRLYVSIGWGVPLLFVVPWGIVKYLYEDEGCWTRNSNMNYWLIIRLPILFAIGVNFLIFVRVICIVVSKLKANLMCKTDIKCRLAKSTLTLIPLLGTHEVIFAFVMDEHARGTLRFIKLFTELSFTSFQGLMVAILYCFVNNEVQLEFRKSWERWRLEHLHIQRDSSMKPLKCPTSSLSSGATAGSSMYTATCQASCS
UniProt O75874, whole entry R132H: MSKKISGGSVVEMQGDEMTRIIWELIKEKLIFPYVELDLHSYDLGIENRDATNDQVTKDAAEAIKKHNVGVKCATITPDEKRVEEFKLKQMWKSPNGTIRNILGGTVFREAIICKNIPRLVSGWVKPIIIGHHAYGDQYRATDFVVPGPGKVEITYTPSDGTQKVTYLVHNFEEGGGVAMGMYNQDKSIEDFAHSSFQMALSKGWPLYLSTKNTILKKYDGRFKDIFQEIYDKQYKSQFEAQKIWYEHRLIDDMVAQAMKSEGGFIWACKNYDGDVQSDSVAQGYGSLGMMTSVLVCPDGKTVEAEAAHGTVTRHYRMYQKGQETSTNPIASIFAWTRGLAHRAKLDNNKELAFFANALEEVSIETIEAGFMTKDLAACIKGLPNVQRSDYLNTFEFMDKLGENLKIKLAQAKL
UniProt P42260, 32-908 limits assumed: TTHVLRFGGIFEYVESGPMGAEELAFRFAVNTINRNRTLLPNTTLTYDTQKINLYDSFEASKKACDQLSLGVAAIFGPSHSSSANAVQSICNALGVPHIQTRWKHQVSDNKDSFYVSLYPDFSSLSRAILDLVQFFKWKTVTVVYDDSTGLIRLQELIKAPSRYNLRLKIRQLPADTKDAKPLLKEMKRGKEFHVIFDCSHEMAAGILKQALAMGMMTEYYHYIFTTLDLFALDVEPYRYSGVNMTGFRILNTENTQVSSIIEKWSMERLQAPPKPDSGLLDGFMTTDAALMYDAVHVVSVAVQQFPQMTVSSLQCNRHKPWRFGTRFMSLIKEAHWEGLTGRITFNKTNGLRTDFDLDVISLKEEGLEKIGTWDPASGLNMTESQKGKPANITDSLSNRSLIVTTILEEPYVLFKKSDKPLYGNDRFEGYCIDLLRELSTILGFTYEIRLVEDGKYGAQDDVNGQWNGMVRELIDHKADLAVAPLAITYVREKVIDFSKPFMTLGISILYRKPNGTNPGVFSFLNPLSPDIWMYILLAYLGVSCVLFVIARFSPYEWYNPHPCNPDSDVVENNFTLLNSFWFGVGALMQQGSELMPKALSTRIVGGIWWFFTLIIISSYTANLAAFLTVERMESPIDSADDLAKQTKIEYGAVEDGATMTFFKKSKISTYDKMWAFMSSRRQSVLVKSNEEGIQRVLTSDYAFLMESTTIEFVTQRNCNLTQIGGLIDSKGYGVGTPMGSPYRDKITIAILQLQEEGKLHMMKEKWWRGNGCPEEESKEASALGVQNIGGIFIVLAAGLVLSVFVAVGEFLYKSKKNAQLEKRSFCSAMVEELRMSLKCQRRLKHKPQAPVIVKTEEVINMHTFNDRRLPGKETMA
UniProt P29466, whole entry, looked up: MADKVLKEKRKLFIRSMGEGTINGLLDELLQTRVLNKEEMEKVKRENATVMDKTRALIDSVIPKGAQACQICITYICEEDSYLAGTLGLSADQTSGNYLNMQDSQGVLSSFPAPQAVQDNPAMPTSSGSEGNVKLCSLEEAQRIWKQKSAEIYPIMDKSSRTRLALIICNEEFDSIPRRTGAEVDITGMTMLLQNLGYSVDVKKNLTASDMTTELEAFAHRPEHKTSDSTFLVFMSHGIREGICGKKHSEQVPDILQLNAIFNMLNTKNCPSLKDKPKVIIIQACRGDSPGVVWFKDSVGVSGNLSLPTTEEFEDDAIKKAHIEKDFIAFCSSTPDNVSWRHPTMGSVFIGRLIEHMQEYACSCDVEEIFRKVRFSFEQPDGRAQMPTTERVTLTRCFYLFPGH

SMILES	tested on	assay	test system	conditions	how to read	measurement	result
COC(=O)[C@@]1(C)C=C(C(=O)Nc2cccc(C(=O)NC34CC(Nc5nccc(-c6cccnc6)n5)(C3)C4)c2)C(=O)CC1	MAPK8	kinase activity, inhibitor		0.06097 µM, unit not given, together with: 10 mM GSH	reference: DMSO	remaining activity	0.296
CCOC(=O)/C=C/CNCCCN1c2ccccc2CCc2ccccc21	E3 ubiquitin-protein ligase NEDD4	inhibitor, Ub-TR-FRET		0.1372 µM, 1 h preincubation, HECT domain, together with: ATP 2 mM	higher = more ubiquitination	ubiquitination TR-FRET signal AUC	121000 a.u. and 129000 a.u. and 128000 a.u.
Nc1nc(SCc2ccc(Cl)cc2)nn1S(=O)(=O)c1cccc([N+](=O)[O-])c1	Lysophospholipase-like protein 1 (LYPLAL1, Homo sapiens, UniProt Q5VWZ2)	activator, gel-based ABPP	purified protein		reference: DMSO	FP-rhodamine labelling	2.5 fold
Cc1ccc(C(=O)Nc2ccc(C(C)C)cc2C(=O)O)cc1S(=O)(=O)Nc1ccc(Br)cc1	RPA1 N-terminal domain	binding, fluorescence polarisation competition		together with: FITC-ATRIP probe		ligand efficiency	0.21
O=C(NCCc1ccccc1)C12CC1/C(=N\O)c1ccccc1O2 (centres unmarked)	GRM4	positive allosteric modulator, calcium mobilization	CHO expressing Gqi5	concentration not given, together with: glutamate EC20	reference: (±)-PHCCC	response	55 ± 3.5%
Cc1ccc(C(=O)Nc2ccc(F)cc2C(=O)O)cc1S(=O)(=O)Nc1ccc(Br)cc1	RPA1 N-terminal domain	binding, fluorescence polarisation competition		together with: FITC-ATRIP probe		ligand efficiency	0.2
CCOC(=O)/C=C/CNCCCN1c2ccccc2CCc2ccc(Br)cc21	E3 ubiquitin-protein ligase NEDD4	inhibitor, Ub-TR-FRET		0.1372 µM, 1 h preincubation, HECT domain, together with: ATP 2 mM	higher = more ubiquitination	ubiquitination TR-FRET signal AUC	144000 a.u. and 141000 a.u. and 145000 a.u.
CC(=O)N[C@@H](CC(C)C)C(=O)N[C@@H](CCCNC(=N)N)C(=O)N[C@@H](CO)C(=O)N[C@@H](CCCNC(=N)N)C(=O)Nc1ccc2c(CC(N)=O)cc(=O)oc2c1	Mucosa-associated lymphoid tissue lymphoma translocation protein 1 (MALT1, Homo sapiens, UniProt Q9UDY8)	substrate, fluorogenic peptide hydrolysis		pH 7.5, enzyme 399 nM, citrate 0.9 M		kcat/Km	1300 M⁻¹ s⁻¹
CC(=O)N[C@@H](CCC(N)=O)C(=O)N[C@H](C(=O)N[C@@H](C)C(=O)N[C@@H](CCCNC(=N)N)C(=O)N[C@@H](CCCCNC(=O)CCc1ccc(N=Nc2ccc(N(C)C)cc2)cc1)C(=O)N[C@@H](CO)C(=O)N[C@H](C(=O)NCC(=O)NCC(=O)NCCCNC(=S)Nc1ccc2c(c1)C(=O)OC21c2ccc(O)cc2Oc2cc(O)ccc21)[C@@H](C)O)[C@@H](C)O	NAD-dependent protein deacetylase sirtuin-2 (SIRT2, Homo sapiens, UniProt Q8IXJ6)	enzyme activity, substrate, plate reader kinetics		24 nM enzyme, together with: 500 µM NAD+		kcat	0.0024 ± 8e-05 s⁻¹
O=C(OC(C(F)(F)F)C(F)(F)F)N1CCc2cccc(Br)c2C1	Fatty-acid amide hydrolase 1 (FAAH, Homo sapiens, UniProt O00519)	enzyme activity, inhibitor, fluorescence AAMCA substrate		1 µM		activity	inactive
CCC1NC(=O)C(CCCNC(=N)N)NC(=O)C(C)(NC(=O)C(C)C)CCCCNC(=O)C(c2ccccc2)NC1=O (centres unmarked)	WD repeat-containing protein 5, with MLL3, RbBP5 (WDR5, Homo sapiens, UniProt P61964)	GST pull-down	HeLa nuclear extract	up to 25 µM, together with: 10 µM GST-MLL3		MLL3-RbBP5 binding	no effect
NC(N)=NC(=O)N1CCc2c(F)ccc(-c3c(F)cc(F)cc3F)c2C1	5-hydroxytryptamine receptor 5A (HTR5A, Homo sapiens, UniProt P47898, E101D)	radioligand competition binding		concentration not given, mutant E101D, together with: 3H-LSD		binding affinity	no effect
CCOC(=O)COC(=O)[C@@H]1C(C=O)=Cc2cc3c(cc2[C@H]1c1cc(OC)c(OC)c(OC)c1)OCO3	Leishmania infantum		promastigote, iRFP			EC50	64.8 ± 4.9 µM
CC(C)(Cn1cc(CCC(=O)Nc2ccccc2)nn1)c1c[nH]c2ccccc12	Glucagon-like peptide 1 receptor (GLP1R, Homo sapiens, UniProt P43220)	cAMP accumulation, positive allosteric modulator, HTRF		0.6 µM, purified compound, together with: GLP-1(9-36) at EC20	reference: BETP	Emax	109 ± 2%
CC(C)(C)CC(C)(C)Nc1c(-c2ccc3c(c2)CN(C2CCC(=O)NC2=O)C3=O)nc2ccccn12 (centres unmarked)	WEE1/CRBN (Homo sapiens, UniProt P30291+Q96SW2)	degrader, HiBiT	Jurkat	5 h		Dmax	98%
C[C@H](Nc1nc(N[C@H](C)C2CC2)nc(-c2cccc(C(F)(F)F)n2)n1)C1CC1	Isocitrate dehydrogenase [NADP] cytoplasmic (IDH1, Homo sapiens, UniProt O75874, R132H)	enzyme activity, inhibitor		mutant heterodimer reverse reaction		maximal inhibition	110%
O=C(O)c1cc(C(=O)N[C@@H](CS)C(=O)O)cc([C@H]2CCN[C@@H]2C(=O)O)c1	Glutamate receptor ionotropic, kainate 2 (Grik2, Rattus norvegicus, UniProt P42260)	radioligand binding	Sf9 membranes	10 µM, homomeric receptor, together with: [3H]kainate		specific binding	88 ± 6%
CN(Cc1ccncc1)c1ccc2c(c1)c(=O)c(C(N)=O)cn2-c1ccc(F)cc1	Grm2	calcium mobilization, negative allosteric modulator		30 µM, together with: glutamate 100 µM	reference: glutamate maximum	response	1.76 ± 0.74%
O=C(CN1C(=O)C=CC1=O)N1CCN(c2cc(N3CCCC3)nc(N3CCCC3)n2)CC1	Caspase-1 (CASP1, Homo sapiens, UniProt P29466)	DTT reversibility		concentration not given, together with: 10 mM DTT		recovered enzyme activity	50 to 65%

SMILES	tested on	assay	test system	conditions	how to read	measurement	result
COc1cc([C@@H]2c3cc4c(cc3C=C(C=O)[C@H]2C(=O)OCCCCCCBr)OCO4)cc(OC)c1OC	Leishmania infantum		promastigote, iRFP			EC50	25.7 ± 3.6 µM
CC(C)C[C@H](NC(=O)[C@@H]1CCCN1C(=O)[C@H](CCC(N)=O)NC(=O)c1ccccc1N)C(=O)N[C@@H](CCC(N)=O)C(=O)N[C@@H](CC(N)=O)C(=O)N[C@@H](CCCCN)C(=O)N[C@H](C(=O)N[C@@H](CCC(N)=O)C(=O)NCCNc1ccc([N+](=O)[O-])cc1[N+](=O)[O-])C(C)C	MIPEP	substrate, FRET peptide hydrolysis				kcat	0.061 s⁻¹
Cc1ccc(NC(=O)c2ccc(CN3CCC(N(C)C)C3)c(C(F)(F)F)c2)cc1N1Cc2cnc(Nc3cnn(C)c3)nc2N(C)C1=O (centres unmarked)	FGFR4/Transcription factor ETV6 (Homo sapiens, UniProt P22455+P41212)	cell proliferation	Ba/F3 TEL-FGFR4	72 h		GI50	0.019 µM
COC(=O)C1(C)C=C(C(=O)Nc2cccc(C(=O)Nc3ccc(Nc4nccc(-c5cccnc5)n4)c(C)c3)c2)C(=O)C1 (centres unmarked)	Mitogen-activated protein kinase 8 (MAPK8, Homo sapiens, UniProt P45983, C116S)	surface plasmon resonance		100, 300, 1000 nM, 1:1 binding model		kon	250000 M⁻¹ s⁻¹
COc1ccc(NC(=O)CN2CCCN(S(=O)(=O)c3ccc(Cl)c(F)c3)CC2)c(OC)c1	GRM4	calcium mobilization, positive allosteric modulator	CHO cells with Gqi5	together with: glutamate	reference: PHCCC maximal response	maximal response	25.5 ± 1.2%
CCOC(=O)/C=C/CNCCCN1c2ccccc2CCc2ccc([N+](=O)[O-])cc21	E3 ubiquitin-protein ligase NEDD4	inhibitor, Ub-TR-FRET		0.4115 µM, 1 h preincubation, HECT domain, together with: ATP 2 mM	higher = more ubiquitination	ubiquitination TR-FRET signal AUC	142000 a.u. and 143000 a.u. and 144000 a.u.
CC(C)C[C@H](NC(=O)[C@H](CCC(N)=O)NC(=O)[C@@H](NC(=O)[C@H](CCCCN)NC(=O)[C@H](CC(N)=O)NC(=O)[C@H](CCC(N)=O)NC(=O)[C@H](CC(C)C)NC(=O)[C@@H]1CCCN1C(=O)[C@H](CCC(N)=O)NC(=O)CNC(=O)[C@H](CO)NC(=O)[C@H](CCCNC(=N)N)NC(=O)[C@H](Cc1ccccc1)NC(=O)c1ccccc1N)C(C)C)C(=O)N[C@@H](CCC(N)=O)C(=O)NCCNc1ccc([N+](=O)[O-])cc1[N+](=O)[O-]	MIPEP	substrate, FRET peptide hydrolysis				kcat	0.122 s⁻¹
CCOC(=O)CCC(C(=O)/C=C/c1ccc(O)c(OC(F)(F)F)c1)C(=O)/C=C/c1ccc(O)c(OC(F)(F)F)c1	Amyloid-beta precursor protein (APP, Homo sapiens, UniProt P05067)	SDS-PAGE western blot, item: Aβ1-42 species 75-200 kDa		30 µM, 24 h, 37 °C, together with: Aβ 10 µM	reference: DMSO control	Aβ band density	1030 ± 185%
COc1ccc(NC(=O)CN2CCCN(S(=O)(=O)c3cccs3)CC2)c(OC)c1	GRM4	calcium mobilization, positive allosteric modulator	CHO cells with Gqi5	together with: glutamate	reference: PHCCC maximal response	maximal response	52.9%
Cc1ccc(OCc2ccc3c(c2)c(=O)c(C(N)=O)cn3-c2ccc(F)cc2)cn1	Grm2	calcium mobilization, negative allosteric modulator		30 µM, together with: glutamate 100 µM	reference: glutamate maximum	response	1.62 ± 0.23%
COC(=O)/C(=C/c1c[nH]c2ccc(OC)cc12)c1ccc(NS(C)(=O)=O)cc1	APP Aβ1-40	Aβ40 aggregation, thioflavin T fluorescence		25 µM		inhibition	0%
Cc1cc(NC(=O)c2cccc(NC(=O)C3=CC(C)(C)CC3=O)c2)ccc1Nc1nccc(-c2cccnc2)n1	MAPK8	kinase activity, inhibitor		4.938 µM, unit not given, together with: 10 mM GSH	reference: DMSO	remaining activity	0.15
CCOC(=O)/C=C/CNCCCCN1c2ccccc2CCc2ccc(Cl)cc21	E3 ubiquitin-protein ligase NEDD4	inhibitor, Ub-TR-FRET		0.01524 µM, 1 h preincubation, HECT domain, together with: ATP 2 mM	higher = more ubiquitination	ubiquitination TR-FRET signal AUC	97000 a.u. and 92600 a.u. and 91700 a.u. and 94400 a.u. and 96600 a.u. and 95100 a.u.
CC(=O)N[C@H]1[C@H]2OC[C@](CO)(O2)[C@H](O)[C@@H]1O	Asialoglycoprotein receptor 1 (Homo sapiens, UniProt P07306)	binding, surface plasmon resonance			reference: GalNAc, higher = stronger binding	affinity ratio	~6 fold
Fc1ccc2[nH]cc(/C=C/c3cccnc3)c2c1	APP Aβ1-40	Aβ40 aggregation, thioflavin T fluorescence		25 µM		inhibition	31%
CC(=O)c1cccc(S(=O)(=O)n2nc(CCCc3ccc(Cl)cc3)nc2N)c1	Lysophospholipase-like protein 1	activator, gel-based ABPP FP-rhodamine			reference: DMSO	probe labelling	1 fold
CCCN(C(=O)C1CCN(S(=O)(=O)c2ccc3[nH]ncc3c2)CC1)[C@@H]1CCc2ccccc21	Muscarinic acetylcholine receptor M5 (CHRM5, Homo sapiens, UniProt P08912)	positive allosteric modulator, calcium mobilization	CHO cells expressing human M5	together with: acetylcholine EC20	reference: ACh maximum	potentiation	73 ± 4%
CC(=O)Nc1ncc(CN2CC[C@H](Oc3cccc(F)n3)C[C@@H]2C)s1 [isotope labelled]	Protein O-GlcNAcase (OGA, Homo sapiens, UniProt O60502)	autoradiography	human cerebellum sections	5 nM, radiolabelled compound		binding	3 nCi/mg
Nc1nc(SCc2ccc(Cl)cc2)nn1S(=O)(=O)c1ccc2[nH]cnc2c1	Lysophospholipase-like protein 1	activator, gel-based ABPP, FP-rhodamine	HEK293 overexpressing Lysophospholipase-like protein 1	10 µM		activation	124%
